Measurements from different studies.
Numbers after ± are the reported error. Values after ≈ are worked out from the molar mass of the structure shown.

F[P-](F)(F)(F)(F)F.F[P-](F)(F)(F)(F)F.[Cu+2].c1ccc(CN2CCCNCCN(Cc3ccccc3)CCCNCC2)cc1
IC50 (Leishmania donovani; parasite growth, resazurin; 72 h, promastigote): > 20 µM

COC(=O)C1=CO[C@@H](C)[C@@H]2Cn3ccc4c5ccccc5nc-4c3C[C@H]12
activity fold increase (Plasmodium falciparum; parasite growth, [3H]-hypoxanthine incorporation; FCR3 drug-resistant; concentration not given; baseline: FCR3 over 3D7): 2 to 6 fold

O.O=[N+]([O-])[O-].O=c1cc[nH]c(=S)[nH]1.[Ag+].c1ccc(P(c2ccccc2)c2ccccc2)cc1.c1ccc(P(c2ccccc2)c2ccccc2)cc1
inhibition zone diameter (Shigella flexneri; MTCC 1457, DMSO; 0.1 mL of 50 mg/mL in 8 mm well, 18 to 24 h): 26 mm

CC(=O)[O-].F[P-](F)(F)(F)(F)F.[Co+2].c1ccc(CN2CCCN3CCN(CCCN(Cc4ccccc4)CC3)CC2)cc1
IC50 (Leishmania donovani; parasite growth, resazurin; 72 h, amastigote): > 15 µM

CCn1c(-c2ccc(-c3ccc(F)cc3)cc2)c(-c2ccc(-c3ccc(F)cc3)cc2)n(CC)c1=[Se+][Au-][P+](CC)(CC)CC.[Cl-]
FIC index (Acinetobacter baumannii; bacterial growth, checkerboard microdilution; carbapenem-resistant; together with: imipenem): 0.5

CC(=O)[O-].CN1CCN2CCN(CC1)CCN(Cc1ccccc1)CC2.F[P-](F)(F)(F)(F)F.[Cu+2]
IC90 (Leishmania donovani; parasite growth; THP-1 macrophages; intracellular amastigotes): > 20 µM

COc1ccc(-c2oc3ccc(-c4cc(OC)c(OC)c(OC)c4)cc3c2C#CC(C)(C)O)cc1
remaining activity (hepatitis C virus; viral entry, HCV pseudoparticle entry; genotype 1a; 10 µM; baseline: DMSO): 83.7%

CC(=NNC(=N)N)c1nnn(-c2ccc(C#CC3(O)CCCCC3)cc2)c1C
selectivity index (Enterococcus faecalis; WI-38, ATCC 51299; baseline: WI-38 IC50 over MIC): 8.78

CN[C@@H]1[C@H](O)[C@H](NC)[C@H]2O[C@]3(O)[C@H](O[C@@H]2[C@H]1O)O[C@H](C)C[C@]3(O)CNCc1ccc(F)cc1
inhibition zone diameter (Neisseria meningitidis; ATCC 13077; 40 µg per disc): 0 mm

Nc1ncc(/C=N/NC(=O)Cc2c[nH]c3ccccc23)cn1
growth inhibition (Escherichia coli; TolC; 50 µM): 18%

[Cl-].[Cl-].[Ni+2].c1ccc(CN2CCNCCN(Cc3ccccc3)CCNCC2)cc1
IC90 (Leishmania donovani; parasite growth, resazurin; 72 h, promastigote): > 20 µM

CC(CCC(=O)[O-])C1CCC2C3CCC4CC(O)CCC4(C)C3CC(O)C12C.C[N+](C)(C)CC(O)CC(=O)O (stereo not shown)
inhibition zone diameter (Staphylococcus epidermidis; TISTR 2172; 1 mg per disc, 18 to 24 h, 37 °C, 6 mm disc): 12.3 ± 0.3 mm

CC[C@@H](C)[C@@H](NC(=O)[C@@H](C)NC(=O)[C@@H](CCCCN)NC(=O)[C@@H](CC(C)C)NC(=O)[C@@H](C)NC(=O)[C@H](NC(=O)[C@@H](Cc1c[nH]cn1)NC(=O)[C@@H](CC(C)C)NC(=O)[C@H](NC(=O)[C@H](NC(=O)[C@@H](CCCCN)NC(=O)[C@@H](CCCCN)NC(=O)[C@@H](C)NC(=O)[C@@H](CO)NC(=O)[C@@H](CCCCN)NC(=O)[C@@H](Cc1ccccc1)NC(=O)[C@H](NC(=O)[C@@H](CCCCN)NC(=O)[C@@H](CC(C)C)NC(=O)[C@@H](Cc1ccccc1)NC(=O)[C@@H](CO)NC(=O)[C@@H](CCCCN)NC(=O)[C@@H](Cc1c[nH]c2ccccc12)NC(=O)[C@@H](CCCCN)NC(C)=O)[C@H](C)O)[C@H](C)O)C(C)C)[C@H](C)O)C(=O)N[C@H](CO)C(=O)N[C@H](CO)C(N)=O
MIC50 (Rhizomucor; clinical isolate; 48 h, 30 °C): 4.7 µg/mL (≈ 1.57 µM)

A few entries again:
O.O=[N+]([O-])[O-].O=c1cc[nH]c(=S)[nH]1.[Ag+].c1ccc(P(c2ccccc2)c2ccccc2)cc1.c1ccc(P(c2ccccc2)c2ccccc2)cc1
inhibition zone diameter (Shigella flexneri; MTCC 1457, DMSO; 0.1 mL of 50 mg/mL in 8 mm well, 18 to 24 h): 26 mm

Nc1ncc(/C=N/NC(=O)Cc2c[nH]c3ccccc23)cn1
growth inhibition (Escherichia coli; TolC; 50 µM): 18%
